Experimental data from different studies.
± gives the spread as reported.
Chain of UniProt Q86UX6 (whole entry, looked up): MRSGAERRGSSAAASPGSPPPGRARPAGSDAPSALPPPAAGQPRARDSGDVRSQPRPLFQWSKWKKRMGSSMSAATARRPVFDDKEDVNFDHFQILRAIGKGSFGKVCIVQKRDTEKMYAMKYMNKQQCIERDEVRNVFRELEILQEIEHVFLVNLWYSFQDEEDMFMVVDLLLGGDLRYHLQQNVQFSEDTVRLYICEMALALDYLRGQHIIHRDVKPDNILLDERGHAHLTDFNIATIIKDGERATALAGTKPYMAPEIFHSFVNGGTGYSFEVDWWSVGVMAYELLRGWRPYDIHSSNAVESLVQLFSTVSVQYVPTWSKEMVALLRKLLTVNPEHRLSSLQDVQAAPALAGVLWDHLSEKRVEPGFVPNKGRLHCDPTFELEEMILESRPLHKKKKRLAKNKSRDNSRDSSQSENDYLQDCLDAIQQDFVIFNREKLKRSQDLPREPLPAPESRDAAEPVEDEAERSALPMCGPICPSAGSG
Chain of UniProt Q8IYT8 (whole entry, looked up): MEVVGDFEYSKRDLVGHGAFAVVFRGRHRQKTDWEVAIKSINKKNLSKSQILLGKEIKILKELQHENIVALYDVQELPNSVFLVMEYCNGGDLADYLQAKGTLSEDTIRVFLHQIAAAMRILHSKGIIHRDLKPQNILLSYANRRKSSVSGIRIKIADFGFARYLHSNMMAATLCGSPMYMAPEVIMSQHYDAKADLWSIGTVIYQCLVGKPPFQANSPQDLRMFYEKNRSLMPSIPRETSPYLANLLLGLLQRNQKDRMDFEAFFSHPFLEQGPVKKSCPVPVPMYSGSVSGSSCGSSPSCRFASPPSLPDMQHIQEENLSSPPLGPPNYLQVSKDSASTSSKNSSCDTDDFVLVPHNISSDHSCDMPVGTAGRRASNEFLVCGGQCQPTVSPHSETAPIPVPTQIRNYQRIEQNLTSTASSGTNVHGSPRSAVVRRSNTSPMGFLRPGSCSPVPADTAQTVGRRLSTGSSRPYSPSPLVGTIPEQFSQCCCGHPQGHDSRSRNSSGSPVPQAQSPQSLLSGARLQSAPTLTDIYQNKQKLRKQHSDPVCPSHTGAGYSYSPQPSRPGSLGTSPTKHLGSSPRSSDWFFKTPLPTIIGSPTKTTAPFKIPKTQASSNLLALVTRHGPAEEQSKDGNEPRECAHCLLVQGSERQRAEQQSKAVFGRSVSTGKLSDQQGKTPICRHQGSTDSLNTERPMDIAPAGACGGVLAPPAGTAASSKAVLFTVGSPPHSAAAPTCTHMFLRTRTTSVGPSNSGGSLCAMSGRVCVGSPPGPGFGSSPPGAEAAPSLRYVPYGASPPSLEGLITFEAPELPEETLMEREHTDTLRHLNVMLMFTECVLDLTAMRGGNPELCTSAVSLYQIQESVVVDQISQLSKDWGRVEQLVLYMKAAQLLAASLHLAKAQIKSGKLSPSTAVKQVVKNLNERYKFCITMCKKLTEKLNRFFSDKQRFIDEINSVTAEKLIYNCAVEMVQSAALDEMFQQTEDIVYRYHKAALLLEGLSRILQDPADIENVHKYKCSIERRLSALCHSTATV

SMILES	target or system	assay	system	setting	scale	endpoint	result
CS(C)(=O)=Nc1ccc(-c2ccc(-c3nc4cc(O[C@@H]5CO[C@H]6[C@@H]5OC[C@H]6O)[nH]c4cc3F)cc2)cc1	Serine/threonine-protein kinase ULK2 (ULK2, Homo sapiens, UniProt Q8IYT8)	enzyme activity, inhibitor		10 µM		inhibition	-4%
CC(C)[C@H](NC(=O)[C@H](CCCNC(=N)N)NC(=O)[C@@H]1CCCN1C(=O)[C@@H](NC(=O)[C@H](C)NC(=O)[C@H](Cc1ccc(O)cc1)NC(=O)[C@H](CCC(N)=O)NC(=O)[C@H](CCCCN)NC(=O)[C@H](CCCNC(=N)N)NC(=O)[C@@H]1CCCN1C(=O)[C@H](CCC(=O)O)NC(=O)[C@@H](NC(=O)[C@H](C)N)[C@@H](C)O)[C@@H](C)O)C(=O)N[C@@H](Cc1ccccc1)C(=O)N[C@@H](Cc1c[nH]c2ccccc12)C(=O)N[C@H](C(=O)N[C@@H](CC(=O)O)C(=O)N[C@@H](C)C(=O)N1CCC[C@H]1C(=O)NCC(=O)NCCOCCOCCOCCOCCOCCOCCOCCOCCOCCOCCOCCOCCC(=O)N[C@@H](CS)C(N)=O)[C@@H](C)O	H441	phage binding		10 min, 37 °C	baseline: control phage	selectivity ratio	1.7 ± 1.4
O=C(O)c1ccc(-c2nc(-c3ccccc3Cl)c3sccn23)cc1	HEL	flow cytometry, item: surface CD235a		0.01 mM	higher = more expression	mean fluorescence intensity	21100 a.u.
CC(C)C12OC1C1OC13C1(C)CCC4=C(COC4=O)C1CC1OC13C2OC(=O)CCCOC1OC(CO)C(O)C(O)C1O (stereo not shown)	primary renal proximal tubule cells	cell viability, XTT		47 h		IC50	5.94 µM
O=c1n(CCNCCOS(=O)(=O)c2ccccc2)c(=O)n(S(=O)(=O)c2ccccc2)c(=O)n1S(=O)(=O)c1ccccc1	A549	cell growth or viability, MTT		200 µg/mL, 72 h		viability	20.5%
CCOC(=O)C1(Cc2ccccc2)Oc2cc(F)ccc2N(Cc2ccccc2)C1=O (stereo not shown)	HaCaT	cell growth or viability, CCK-8		6.25 µM, 72 h		inhibition	0.21%
O=C1NC2(CC2)COc2ncc(F)cc2[C@H]2COCCN2c2ccn3ncc1c3n2			Sprague-Dawley rat, female, serum	oral, 20 mg/kg/day, end of recovery, 4-week subacute toxicity		serum total protein	65.1 ± 3.6 g/L
CN(C)[C@H]1C[C@@]23CC[C@@]4(O2)C(=CC[C@]2(C)[C@@H](c5ccc6ccncc6c5)CC[C@H]24)C=C3[C@@H](O)[C@@H]1O	Serine/threonine-protein kinase 32C (STK32C, Homo sapiens, UniProt Q86UX6)	ATP probe labelling, inhibitor, KiNativ profiling		0.1 µM		inhibition	-0.9%
Cc1cc(Oc2nc(N3CC[C@@H](c4ccncc4)C3)ncc2F)[nH]n1	Kasumi 1	cell proliferation				IC50	15.5 µM
NC(=S)N/N=C/c1ccc(OCc2cccc(F)c2)cc1	IMR-32	item: GPX3		100 µg/mL, 24 h	higher = more activity	glutathione peroxidase activity (OD450)	0.126 a.u.
CSCC[C@H](NC(=O)[C@@H](NC(=O)[C@H](CCC(N)=O)NC(=O)[C@H](CO)NC(=O)[C@@H](N)C(C)C)[C@@H](C)O)C(=O)N[C@@H](CCCNC(=N)N)C(=O)N[C@@H](CCC(N)=O)C(=O)N[C@H](C(=O)N[C@@H](C)C(=O)N[C@H](C(=O)N1CCC[C@H]1C(=O)N[C@@H](CC(C)C)C(=O)N[C@@H](CC(C)C)C(=O)N[C@@H](Cc1c[nH]c2ccccc12)C(=O)N[C@@H](Cc1ccccc1)C(=O)N[C@@H](Cc1c[nH]c2ccccc12)C(=O)N[C@H](C(=O)NCC(=O)N[C@@H](CO)C(=O)N[C@@H](CC(C)C)C(=O)NCCOCCOCCOCCOCCOCCOCCOCCOCCOCCOCCOCCOCCC(=O)N[C@@H](CS)C(N)=O)[C@@H](C)O)C(C)C)[C@@H](C)O	SW480	phage binding		10 min, 37 °C	baseline: control phage	selectivity ratio	4.5 ± 2.2
COc1ccccc1-c1n[nH]c2nc(NC3CCN(C(=O)Cc4ccc(F)cc4F)CC3)ncc12		bead binding, competition bead pull-down, item: LMJF.21.0280	Leishmania donovani extract	10 µM	baseline: vehicle	relative abundance	1.27
CC(C)(C)C(=O)OCOP(=O)(OCOC(=O)C(C)(C)C)C1CCCN(O)C1=O (stereo not shown)	NCI-H226					TGI	9.62 µM
COc1ccccc1-c1n[nH]c2nc(N[C@H]3CC[C@H](NS(=O)(=O)CC(C)C)CC3)ncc12		bead binding, competition bead pull-down, item: LINJ.23.0410	Leishmania donovani extract	10 µM	baseline: vehicle	relative abundance	0.71
CC1OC2OC3C4=C(OC3(C)C12O)C(=O)c1c(O)cccc1C4=O (stereo not shown)	HeLa and Vero	MTT			baseline: CC50 Vero over EC50 HeLa	selectivity index	3.08
CC(C)C[C@H](NC(=O)[C@@H]1CCCN1C(=O)[C@H](CCCCN)NC(=O)[C@@H](N)CO)C(=O)N1CCC[C@H]1C(=O)N[C@@H](CCC(=O)O)C(=O)N[C@H](C(=O)N[C@H](C(=O)N[C@@H](CC(=O)O)C(=O)N[C@@H](CCC(=O)O)C(=O)N[C@@H](Cc1ccc(O)cc1)C(=O)NCC(=O)NCCOCCOCCOCCOCCOCCOCCOCCOCCOCCOCCOCCOCCC(=O)N[C@@H](CCCCNC(=O)CC[C@H](C(=O)O)N1CCN(CC(=O)O)CCN(CC(=O)O)CC1)C(=O)N1CCN(CCCN(C)c2ccc3nccc(C(=O)NCC(=O)N4CC(F)(F)C[C@H]4C#N)c3c2)CC1)[C@@H](C)O)C(C)C	MRC5	T-cell-mediated lysis		16 h, effector to target 5:1		EC50	0.000538 µM

Repeated from above:
SMILES	target or system	assay	system	setting	scale	endpoint	result
CC(C)(C)C(=O)OCOP(=O)(OCOC(=O)C(C)(C)C)C1CCCN(O)C1=O (stereo not shown)	NCI-H226					TGI	9.62 µM
CC(C)[C@H](NC(=O)[C@H](CCCNC(=N)N)NC(=O)[C@@H]1CCCN1C(=O)[C@@H](NC(=O)[C@H](C)NC(=O)[C@H](Cc1ccc(O)cc1)NC(=O)[C@H](CCC(N)=O)NC(=O)[C@H](CCCCN)NC(=O)[C@H](CCCNC(=N)N)NC(=O)[C@@H]1CCCN1C(=O)[C@H](CCC(=O)O)NC(=O)[C@@H](NC(=O)[C@H](C)N)[C@@H](C)O)[C@@H](C)O)C(=O)N[C@@H](Cc1ccccc1)C(=O)N[C@@H](Cc1c[nH]c2ccccc12)C(=O)N[C@H](C(=O)N[C@@H](CC(=O)O)C(=O)N[C@@H](C)C(=O)N1CCC[C@H]1C(=O)NCC(=O)NCCOCCOCCOCCOCCOCCOCCOCCOCCOCCOCCOCCOCCC(=O)N[C@@H](CS)C(N)=O)[C@@H](C)O	H441	phage binding		10 min, 37 °C	baseline: control phage	selectivity ratio	1.7 ± 1.4
O=C1NC2(CC2)COc2ncc(F)cc2[C@H]2COCCN2c2ccn3ncc1c3n2			Sprague-Dawley rat, female, serum	oral, 20 mg/kg/day, end of recovery, 4-week subacute toxicity		serum total protein	65.1 ± 3.6 g/L
